Results of several laboratories.
Numbered parts are unrelated; each lists some results of a single study. Substitutions count along the parent as printed.
Chain of UniProt P62837 (whole entry, looked up): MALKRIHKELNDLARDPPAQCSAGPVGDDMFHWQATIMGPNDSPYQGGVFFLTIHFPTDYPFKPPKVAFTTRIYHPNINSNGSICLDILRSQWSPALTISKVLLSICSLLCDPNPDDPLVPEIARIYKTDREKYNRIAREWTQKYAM
Chain of UniProt Q8H174 (whole entry, looked up): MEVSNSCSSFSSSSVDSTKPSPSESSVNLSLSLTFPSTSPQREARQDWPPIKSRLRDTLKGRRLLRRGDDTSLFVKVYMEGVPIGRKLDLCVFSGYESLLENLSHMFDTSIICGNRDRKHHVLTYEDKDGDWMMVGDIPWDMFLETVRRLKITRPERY
Chain of UniProt Q8L7G0 (whole entry, looked up): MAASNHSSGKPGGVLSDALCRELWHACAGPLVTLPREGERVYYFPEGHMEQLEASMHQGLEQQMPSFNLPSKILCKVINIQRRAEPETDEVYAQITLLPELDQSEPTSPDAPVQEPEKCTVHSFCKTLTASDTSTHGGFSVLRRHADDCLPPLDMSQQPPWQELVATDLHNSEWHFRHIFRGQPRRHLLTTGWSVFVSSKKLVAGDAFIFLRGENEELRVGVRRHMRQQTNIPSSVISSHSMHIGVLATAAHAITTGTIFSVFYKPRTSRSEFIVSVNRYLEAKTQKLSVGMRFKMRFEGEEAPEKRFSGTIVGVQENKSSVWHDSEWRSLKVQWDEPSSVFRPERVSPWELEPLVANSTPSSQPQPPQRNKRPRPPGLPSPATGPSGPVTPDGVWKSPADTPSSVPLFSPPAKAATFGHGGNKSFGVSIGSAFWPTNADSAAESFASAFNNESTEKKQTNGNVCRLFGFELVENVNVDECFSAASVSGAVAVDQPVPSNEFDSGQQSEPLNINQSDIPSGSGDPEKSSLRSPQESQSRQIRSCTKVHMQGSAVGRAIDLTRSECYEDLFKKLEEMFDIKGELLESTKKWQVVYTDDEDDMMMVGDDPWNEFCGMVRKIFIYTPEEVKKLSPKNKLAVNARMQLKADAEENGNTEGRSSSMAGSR
Chain of UniProt Q38829 (whole entry, looked up): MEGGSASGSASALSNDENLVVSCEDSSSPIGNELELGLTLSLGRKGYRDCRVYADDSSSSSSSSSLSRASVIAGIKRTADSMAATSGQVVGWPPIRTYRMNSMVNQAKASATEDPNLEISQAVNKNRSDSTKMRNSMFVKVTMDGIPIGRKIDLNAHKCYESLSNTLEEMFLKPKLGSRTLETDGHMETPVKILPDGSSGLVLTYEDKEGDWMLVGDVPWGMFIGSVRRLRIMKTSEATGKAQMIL
Chain of UniProt Q94JM3 (whole entry, looked up): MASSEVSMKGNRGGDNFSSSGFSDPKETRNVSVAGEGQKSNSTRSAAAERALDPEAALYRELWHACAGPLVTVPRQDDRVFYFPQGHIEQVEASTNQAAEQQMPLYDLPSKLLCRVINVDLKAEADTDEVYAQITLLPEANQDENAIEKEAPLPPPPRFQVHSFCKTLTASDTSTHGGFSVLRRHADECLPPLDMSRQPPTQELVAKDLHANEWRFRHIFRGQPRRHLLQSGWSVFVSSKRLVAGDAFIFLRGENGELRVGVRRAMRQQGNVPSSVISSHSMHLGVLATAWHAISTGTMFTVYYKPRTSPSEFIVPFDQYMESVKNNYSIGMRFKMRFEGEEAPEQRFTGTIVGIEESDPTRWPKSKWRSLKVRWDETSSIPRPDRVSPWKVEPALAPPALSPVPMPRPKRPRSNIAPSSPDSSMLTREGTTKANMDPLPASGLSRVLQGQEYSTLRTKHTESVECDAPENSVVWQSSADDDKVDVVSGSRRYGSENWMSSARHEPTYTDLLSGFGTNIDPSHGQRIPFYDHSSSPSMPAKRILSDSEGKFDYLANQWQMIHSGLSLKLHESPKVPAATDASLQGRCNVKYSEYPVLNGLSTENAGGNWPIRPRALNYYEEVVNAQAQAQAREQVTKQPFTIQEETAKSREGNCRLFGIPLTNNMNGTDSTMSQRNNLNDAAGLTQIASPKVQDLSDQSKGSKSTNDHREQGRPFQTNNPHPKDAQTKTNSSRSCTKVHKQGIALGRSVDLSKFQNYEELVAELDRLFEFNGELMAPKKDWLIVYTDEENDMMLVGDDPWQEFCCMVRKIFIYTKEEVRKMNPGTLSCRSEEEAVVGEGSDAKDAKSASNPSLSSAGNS
Chain of UniProt Q93YR9 (whole entry, looked up): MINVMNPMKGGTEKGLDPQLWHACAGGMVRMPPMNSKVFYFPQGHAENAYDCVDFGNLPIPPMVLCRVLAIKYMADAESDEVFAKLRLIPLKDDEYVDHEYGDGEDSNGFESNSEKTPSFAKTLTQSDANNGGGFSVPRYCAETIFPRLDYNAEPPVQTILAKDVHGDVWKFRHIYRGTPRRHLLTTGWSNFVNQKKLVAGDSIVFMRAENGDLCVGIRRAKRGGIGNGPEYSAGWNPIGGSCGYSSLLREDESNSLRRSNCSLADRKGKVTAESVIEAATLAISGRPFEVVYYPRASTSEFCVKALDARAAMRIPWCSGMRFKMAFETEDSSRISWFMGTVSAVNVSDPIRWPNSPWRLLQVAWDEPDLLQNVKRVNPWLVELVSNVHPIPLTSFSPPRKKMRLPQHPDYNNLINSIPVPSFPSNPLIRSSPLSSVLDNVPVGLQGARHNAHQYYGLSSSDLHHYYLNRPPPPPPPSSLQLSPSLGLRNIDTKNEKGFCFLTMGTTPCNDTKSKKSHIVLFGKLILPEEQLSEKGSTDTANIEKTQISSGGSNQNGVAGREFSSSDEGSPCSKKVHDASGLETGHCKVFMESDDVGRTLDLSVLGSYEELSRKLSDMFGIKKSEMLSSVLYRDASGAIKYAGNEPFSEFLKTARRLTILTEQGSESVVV

Set 1
Target: NFE2L1, bZIP domain (human)
Technique: DHFR protein complementation
Sample: yeast
Setting: single substitutions, most at no-binding floor
Reference: wild-type JUN-FOS pair
Direction: higher = stronger binding
Starting sequence: JUN, bZIP domain (human); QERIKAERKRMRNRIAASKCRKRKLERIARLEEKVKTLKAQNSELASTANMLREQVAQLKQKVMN; partner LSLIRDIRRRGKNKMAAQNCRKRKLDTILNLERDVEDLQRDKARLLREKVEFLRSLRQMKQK
Variant | binding fitness [natural log]
L38K | -1.57
A49P | -1.55
A49T | -1.32
L59R | -1.55
N42L | -1.47
E54R | -1.47
E33T | -1.43
Q41R | -1.45

Set 2
Target: Interferon regulatory factor 7, full length, phosphomimetic (IRF7, Homo sapiens, UniProt Q92985, residues 1-503, S471D/S472D/S475D/S476D/S477D/S483D/S484D/S487D)
Chain of UniProt Q92985 (whole entry, unmodified, looked up): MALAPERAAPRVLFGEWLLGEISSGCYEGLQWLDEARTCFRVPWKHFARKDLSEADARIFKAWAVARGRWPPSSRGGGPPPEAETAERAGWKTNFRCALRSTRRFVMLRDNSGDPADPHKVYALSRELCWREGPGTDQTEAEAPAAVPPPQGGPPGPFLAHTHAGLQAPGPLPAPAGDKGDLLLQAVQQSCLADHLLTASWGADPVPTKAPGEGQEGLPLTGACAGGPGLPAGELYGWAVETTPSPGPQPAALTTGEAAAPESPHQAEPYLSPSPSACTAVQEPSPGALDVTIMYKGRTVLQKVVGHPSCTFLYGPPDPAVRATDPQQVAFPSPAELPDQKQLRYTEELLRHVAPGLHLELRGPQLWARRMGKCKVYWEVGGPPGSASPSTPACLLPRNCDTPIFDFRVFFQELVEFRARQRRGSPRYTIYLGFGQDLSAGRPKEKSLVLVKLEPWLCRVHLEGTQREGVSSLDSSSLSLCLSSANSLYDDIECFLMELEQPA
Technique: protein-binding microarray
Molecule type: double-stranded DNA, one strand shown
Sample: in vitro
Concentration: 2200 nM top
Setting: 60-bp whole probe
Added: salmon DNA 0.4 mg/ml
Reference: random background probes
Direction: higher = stronger binding
Shared flanks, not repeated: GCCTAGCAC … GTCTTGATTCGCTTGACGCTGCTG
Strand | fitted relative affinity
GTCGAACTGGGGACTGGAGACGTGCTA | 0.0451 z-score
TTAGGTTCCCTTTCCCTTTAGTGCTAG | 4.19 z-score
TCATCACTCAATCTCAAACTGTGCTAG | 0.901 z-score
GACGGTGTCGACTATCGGGACGTGCTA | -0.0586 z-score
GACGGACTGGACTTTCGTGACGTGCTA | 1.06 z-score
CACGATCTCAGTATCGAGACGTGCTAG | 0.612 z-score
TTAGGTTTCGACTGTCGGTTAGTGCTA | 3.13 z-score
GAGGGTATCGGGTTTCGGGACGTGCTA | 1.2 z-score

Set 3
Target: HLA class I histocompatibility antigen, A alpha chain, allele A*80:01 (Homo sapiens, UniProt P04439)
Effect on: peptide-MHC binding
Molecule type: peptide
Concentration: concentration not given
Sequence | binding
RVACRDVEV | inactive
YRRKLTNPA | inactive
LSDNLSLVY | inactive
VSANVKGNW | inactive
VNRWLFRHL | inactive
FLFDRLTNG | inactive
RTRPRWIPA | inactive
MTPGRGLSK | inactive
YAKKFKTGM | inactive
QFLSFASLF | inactive
PVTPVIPRV | inactive
KVVPRRKAK | inactive
TLPGCLIIL | inactive
KLYLRPWWH | inactive
RLAKLTEAI | inactive
AVDWYQQRI | inactive
IQFDWYPTS | inactive
KKNHWFILK | inactive
LEGLADAIW | inactive

Set 4
Sequence: B1 (IAA8)
Technique: two-hybrid
Direction: higher = firmer interaction
B1: IAA8 (Arabidopsis thaliana, UniProt Q38826); chain MSYRLLSVDKDELVTSPCLKERNYLGLSDCSSVDSSTIPNVVGKSNLNFKATELRLGLPESQSPERETDFGLLSPRTPDEKLLFPLLPSKDNGSATTGHKNVVSGNKRGFADTWDEFSGVKGSVRPGGGINMMLSPKVKDVSKSIQEERSHAKGGLNNAPAAKAQVVGWPPIRSYRKNTMASSTSKNTDEVDGKPGLGVLFVKVSMDGAPYLRKVDLRTYTSYQQLSSALEKMFSCFTLGQCGLHGAQGRERMSEIKLKDLLHGSEFVLTYEDKDGDWMLVGDVPWEIFTETCQKLKIMKGSDSIGLAPGAVEKSKNKERV
partner | conditions | how to read | positive tests
IAA11 (Arabidopsis thaliana, UniProt Q38829) | weak activation fusion | reference: out of 2 tests | 0
ARF2 727-859 (Arabidopsis thaliana, UniProt Q94JM3) | – | reference: out of 4 tests | 0
ARF16 570-670 (Arabidopsis thaliana, UniProt Q93YR9) | – | reference: out of 2 tests | 0
IAA31 (Arabidopsis thaliana, UniProt Q8H174) | – | reference: out of 4 tests | 2
ARF1 538-665 (Arabidopsis thaliana, UniProt Q8L7G0) | – | reference: out of 4 tests | 0

Other studies, line by line
Substance | target | assay | test system | conditions | how to read | endpoint | value
BRCA1 RING domain (UniProt P38398) | UBE2D2 UBC core domain (UniProt P62837) | yeast two-hybrid | yeast | mostly zero background | reference: not given, higher = stronger interaction | lacZ reporter activity | 0

Some of these lines once more (set 3):
Sequence | binding
MTPGRGLSK | inactive
QFLSFASLF | inactive
KKNHWFILK | inactive
IQFDWYPTS | inactive
YRRKLTNPA | inactive
RLAKLTEAI | inactive
